Experimental data gathered from unrelated publications.
Lines come from different studies, so protocols differ. Numbers after ± are the reported error.
B1: enzyme (Klebsiella pneumoniae, UniProt A6TH53); chain MAAKDVKFGNDARVKMLRGVNVLADAVKVTLGPKGRNVVLDKSFGAPTITKDGVSVAREIELEDKFENMGAQMVKEVASKANDAAGDGTTTATVLAQAIVNEGLKAVAAGMNPMDLKRGIDKAVLAAVEELKALSVPCSDSKAIAQVGTISANSDETVGKLIAEAMDKVGKEGVITVEDGTGLEDELDVVEGMQFDRGYLSPYFINKPDTGAVELESPFILLADKKISNIREMLPVLEAVAKAGKPLVIIAEDVEGEALATLVVNTMRGIVKVAAVKAPGFGDRRKAMLQDIATLTGGTVISEEIGMELEKATLEDLGQAKRVVINKDTTTIIDGVGEESAIQGRVAQIRKQIEEATSDYDREKLQERVAKLAGGVAVIKVGAATEVEMKEKKARVDDALHATRAAVEEGVVAGGGVALVRVAAKLAGLTGQNEDQNVGIKVALRAMEAPLRQIVSNAGEEPSVVANNVKAGDGNYGYNAATEEYGNMIDFGILDPTKVTRSALQYAASVAGLMITTECMVTDLPKGDAPDLGAAGGMGGMGGMGGMM
B2: GcL (Parageobacillus, UniProt A0A023DFE8); chain MANVIKARPKLYVMDNGRMRMDKNWMIAMHNPATIHNPNAQTEFVEFPIYTVLIDHPEGKILFDTSCNPNSMGPQGRWAESTQQMFPWTATEECYLHNRLEQLKVRPEDIRYVVASHLHLDHAGCLEMFTNATIIVHEDEFNGALQCYARNQKEGAYIWADIDAWIKNNLQWRTVKRHEDNILLAEGVKVLNFGSGHAWGMLGLHVELPETGGIILASDAIYTAESYGPPIKPPGIIYDSLGYMNTVERIRRIAQETKSQVWFGHDAEQFKKFRKSTEGYYE
B3: bglA A17S (Acetivibrio thermocellus, UniProt P26208); chain MSKITFPKDFIWGSATSAYQIEGAYNEDGKGESIWDRFSHTPGNIADGHTGDVACDHYHRYEEDIKIMKEIGIKSYRFSISWPRIFPEGTGKLNQKGLDFYKRLTNLLLENGIMPAITLYHWDLPQKLQDKGGWKNRDTTDYFTEYSEVIFKNLGDIVPIWFTHNEPGVVSLLGHFLGIHAPGIKDLRTSLEVSHNLLLSHGKAVKLFREMNIDAQIGIALNLSYHYPASEKAEDIEAAELSFSLAGRWYLDPVLKGRYPENALKLYKKKGIELSFPEDDLKLISQPIDFIAFNNYSSEFIKYDPSSESGFSPANSILEKFEKTDMGWIIYPEGLYDLLMLLDRDYGKPNIVISENGAAFKDEIGSNGKIEDTKRIQYLKDYLTQAHRAIQDGVNLKAYYLWSLLDNFEWAYGYNKRFGIVHVNFDTLERKIKDSGYWYKEVIKNNGF
B4: enzyme (Enterococcus faecalis, UniProt Q836M4); chain MEIHFEKVTSDNRKAVENLQVFAEQQAFIESMAENLKESDQFPEWESAGIYDGNQLIGYAMYGRWQDGRVWLDRFLIDQRFQGQGYGKAACRLLMLKLIEKYQTNKLYLSVYDTNSSAIRLYQQLGFVFNGELDTNGERVMEWTHQNK
B5: bglA A17S/S39T/T105V (Acetivibrio thermocellus, UniProt P26208); chain MSKITFPKDFIWGSATSAYQIEGAYNEDGKGESIWDRFTHTPGNIADGHTGDVACDHYHRYEEDIKIMKEIGIKSYRFSISWPRIFPEGTGKLNQKGLDFYKRLVNLLLENGIMPAITLYHWDLPQKLQDKGGWKNRDTTDYFTEYSEVIFKNLGDIVPIWFTHNEPGVVSLLGHFLGIHAPGIKDLRTSLEVSHNLLLSHGKAVKLFREMNIDAQIGIALNLSYHYPASEKAEDIEAAELSFSLAGRWYLDPVLKGRYPENALKLYKKKGIELSFPEDDLKLISQPIDFIAFNNYSSEFIKYDPSSESGFSPANSILEKFEKTDMGWIIYPEGLYDLLMLLDRDYGKPNIVISENGAAFKDEIGSNGKIEDTKRIQYLKDYLTQAHRAIQDGVNLKAYYLWSLLDNFEWAYGYNKRFGIVHVNFDTLERKIKDSGYWYKEVIKNNGF
B6: BGLU7 (Oryza sativa, UniProt Q75I93); chain AAVPKPNWLGGLSRAAFPKRFVFGTATSAYQVEGMAASGGRGPSIWDAFAHTPGNVAGNQNGDVATDQYHRYKEDVNLMKSLNFDAYRFSISWSRIFPDGEGRVNQEGVAYYNNLINYLLQKGITPYVNLYHYDLPLALEKKYGGWLNAKMADLFTEYADFCFKTFGNRVKHWFTFNEPRIVALLGYDQGTNPPKRCTKCAAGGNSATEPYIVAHNFLLSHAAAVARYRTKYQAAQQGKVGIVLDFNWYEALSNSTEDQAAAQRARDFHIGWYLDPLINGHYPQIMQDLVKDRLPKFTPEQARLVKGSADYIGINQYTASYMKGQQLMQQTPTSYSADWQVTYVFAKNGKPIGPQANSNWLYIVPWGMYGCVNYIKQKYGNPTVVITENGMDQPANLSRDQYLRDTTRVHFYRSYLTQLKKAIDEGANVAGYFAWSLLDNFEWLSGYTSKFGIVYVDFNTLERHPKASAYWFRDMLKH
B7: enzyme (Bacillus thuringiensis, UniProt P0CJ63); chain MTVKKLYFIPAGRCMLDHSSVNSALTPGKLLNLPVWCYLLETEEGPILVDTGMPESAVNNEGLFNGTFVEGQILPKMTEEDRIVNILKRVGYEPDDLLYIISSHLHFDHAGGNGAFTNTPIIVQRTEYEAALHREEYMKECILPHLNYKIIEGDYEVVPGVQLLYTPGHSPGHQSLFIETEQSGSVLLTIDASYTKENFEDEVPFAGFDPELALSSIKRLKEVVKKEKPIIFFGHDIEQEKSCRVFPEYI
Chain of UniProt O95551 (whole entry, looked up): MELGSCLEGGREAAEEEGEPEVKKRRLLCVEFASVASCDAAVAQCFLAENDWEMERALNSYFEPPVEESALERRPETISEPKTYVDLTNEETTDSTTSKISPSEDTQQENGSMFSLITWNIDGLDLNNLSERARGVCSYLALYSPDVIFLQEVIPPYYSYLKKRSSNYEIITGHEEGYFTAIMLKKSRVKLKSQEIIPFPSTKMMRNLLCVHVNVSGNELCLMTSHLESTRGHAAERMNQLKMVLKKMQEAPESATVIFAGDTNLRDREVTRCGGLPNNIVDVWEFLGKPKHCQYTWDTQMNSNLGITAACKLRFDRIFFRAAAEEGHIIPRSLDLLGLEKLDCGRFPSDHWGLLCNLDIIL
Chain of UniProt O31616 (whole entry, looked up): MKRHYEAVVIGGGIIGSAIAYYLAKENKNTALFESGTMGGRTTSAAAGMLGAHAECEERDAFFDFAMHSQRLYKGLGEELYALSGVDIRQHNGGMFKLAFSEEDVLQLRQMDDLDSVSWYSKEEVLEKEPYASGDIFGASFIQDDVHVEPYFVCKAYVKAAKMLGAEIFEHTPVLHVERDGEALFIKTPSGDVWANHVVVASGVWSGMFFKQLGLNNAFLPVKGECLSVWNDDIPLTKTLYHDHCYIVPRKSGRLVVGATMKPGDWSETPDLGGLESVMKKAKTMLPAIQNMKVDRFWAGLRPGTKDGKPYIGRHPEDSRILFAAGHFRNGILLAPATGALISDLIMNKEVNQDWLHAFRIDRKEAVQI
Chain of UniProt Q9I4K6 (whole entry, looked up): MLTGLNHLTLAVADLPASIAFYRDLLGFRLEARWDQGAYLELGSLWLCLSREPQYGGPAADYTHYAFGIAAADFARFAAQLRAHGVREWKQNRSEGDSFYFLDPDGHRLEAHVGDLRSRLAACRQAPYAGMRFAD

Molecule | target or system | assay | test system | setting | how to read | measurement | value
fcl (Campylobacter jejuni, UniProt Q0P8I6) | Nc1nc2c(ncn2[C@@H]2O[C@H](COP(=O)(O)OP(=O)(O)O[C@H]3O[C@@H](CCO)C(=O)[C@@H](O)[C@@H]3O)[C@@H](O)[C@H]2O)c(=O)[nH]1 | steady-state kinetics |  | pH 7.5, 25 °C, apparent |  | kcat/Km | 33000 M⁻¹ s⁻¹
fosA (Pseudomonas aeruginosa, UniProt Q9I4K6) | C[C@@H]1O[C@@H]1P(=O)(O)O | steady-state kinetics |  |  |  | kcat/Km | 900000 ± 140000 M⁻¹ s⁻¹
B1 (enzyme) | Nc1ncnc2c1ncn2[C@@H]1O[C@H](COP(=O)(O)OP(=O)(O)OP(=O)(O)O)[C@@H](O)[C@H]1O | steady-state kinetics |  | pH 7.4, 24 °C, apparent, per site |  | kcat/Km | 1350 M⁻¹ s⁻¹
enzyme (UniProt I4BZH5) | N=C(N)NCCC[C@H](N)C(=O)O | steady-state kinetics |  | pH 8, 30 °C |  | kcat/Km | 26900 ± 900 M⁻¹ s⁻¹
TDP2 (Homo sapiens, UniProt O95551) | Cc1cn([C@H]2C[C@H](O)[C@@H](COP(=O)(O)Oc3ccc([N+](=O)[O-])cc3)O2)c(=O)[nH]c1=O | steady-state kinetics |  |  |  | kcat/Km | 556 M⁻¹ s⁻¹
insulin human |  | item: NRGN mRNA | EcoHIV-infected mouse, brain | i.p., dose not given | relative to: PBS | fold change | 1.02
enzyme (Bacillus subtilis, UniProt O31616) | O=C(O)CNCP(=O)(O)O | steady-state kinetics |  | pH 8, 25 °C |  | kcat/Km | 13.1 M⁻¹ s⁻¹
Cj1438c (Campylobacter jejuni, UniProt Q0P8H6) | NCCOP(=O)(O)O | steady-state kinetics |  | pH 8, 25 °C, apparent |  | kcat/Km | 12000 ± 4000 M⁻¹ s⁻¹
B2 (GcL) | CCCC(=O)N[C@H]1CCOC1=O | steady-state kinetics |  | pH 8.3, together with: CoCl2 0.2 mM |  | kcat/Km | 34000 ± 10000 M⁻¹ s⁻¹
B3 (bglA A17S) | O=[N+]([O-])c1ccc(O[C@@H]2O[C@H](CO)[C@@H](O)[C@H](O)[C@H]2O)cc1 | steady-state kinetics |  | pH 5.5, 60 °C |  | kcat/Km | 131000 ± 14000 M⁻¹ s⁻¹
B4 (enzyme) | CC(=O)SCCNC(=O)CCNC(=O)[C@H](O)C(C)(C)COP(=O)(O)OP(=O)(O)OC[C@H]1O[C@@H](n2cnc3c(N)ncnc32)[C@H](O)[C@@H]1OP(=O)(O)O | steady-state kinetics |  | pH 8, 37 °C, Hill n 1.36, together with: spermine 1 mM |  | kcat/Km | 130000 M⁻¹ s⁻¹
B5 (bglA A17S/S39T/T105V) | O=[N+]([O-])c1ccc(O[C@@H]2O[C@H](CO)[C@@H](O)[C@H](O)[C@H]2O)cc1 | steady-state kinetics |  | pH 5.5, 60 °C |  | kcat/Km | 61200 ± 3600 M⁻¹ s⁻¹
rCR L137V (Lodderomyces parapsilosis) | CC(=O)c1ccc(Cl)cc1 | steady-state kinetics |  | pH 7, 30 °C, together with: NADH 0.5 mM |  | kcat/Km | 9900 M⁻¹ s⁻¹
B6 (BGLU7) | CC(C)(C#N)O[C@@H]1O[C@H](CO)[C@@H](O)[C@H](O)[C@H]1O | steady-state kinetics |  | pH 6, 30 °C, not purified |  | kcat/Km | 1200 ± 510 M⁻¹ s⁻¹
B7 (enzyme) | CCCC(=O)N[C@H]1CCSC1=O | steady-state kinetics |  | pH 8, together with: CoCl2 0.2 mM, DTNB 2 mM |  | kcat/Km | 96300 ± 18400 M⁻¹ s⁻¹
fcl (Campylobacter jejuni, UniProt F2X7A6) | Nc1nc2c(ncn2[C@@H]2O[C@H](COP(=O)(O)OP(=O)(O)O[C@H]3O[C@@H](CCO)C(=O)[C@H](O)[C@@H]3O)[C@@H](O)[C@H]2O)c(=O)[nH]1 | steady-state kinetics |  | pH 7.5, 25 °C, apparent |  | kcat/Km | 270000 M⁻¹ s⁻¹
